Experimental data from different studies.
Lines come from different studies, so protocols differ. Numbers after ± are the reported error.
HCRTR1: Orexin/Hypocretin receptor type 1 (HCRTR1, Homo sapiens, UniProt O43613)
Sequence of UniProt O43613 (whole entry, looked up): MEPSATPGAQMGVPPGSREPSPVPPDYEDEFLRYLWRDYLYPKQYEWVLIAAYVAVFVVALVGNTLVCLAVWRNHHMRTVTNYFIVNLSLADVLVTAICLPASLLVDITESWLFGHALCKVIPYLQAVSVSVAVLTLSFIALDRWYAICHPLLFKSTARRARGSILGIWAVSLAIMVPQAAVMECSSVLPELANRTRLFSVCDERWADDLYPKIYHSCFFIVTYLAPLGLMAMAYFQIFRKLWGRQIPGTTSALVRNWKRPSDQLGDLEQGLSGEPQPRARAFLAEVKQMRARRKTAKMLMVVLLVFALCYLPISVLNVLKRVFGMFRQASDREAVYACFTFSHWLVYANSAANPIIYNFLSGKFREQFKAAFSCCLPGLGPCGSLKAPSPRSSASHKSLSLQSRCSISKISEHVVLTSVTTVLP
Sequence of UniProt Q07954 (whole entry, looked up): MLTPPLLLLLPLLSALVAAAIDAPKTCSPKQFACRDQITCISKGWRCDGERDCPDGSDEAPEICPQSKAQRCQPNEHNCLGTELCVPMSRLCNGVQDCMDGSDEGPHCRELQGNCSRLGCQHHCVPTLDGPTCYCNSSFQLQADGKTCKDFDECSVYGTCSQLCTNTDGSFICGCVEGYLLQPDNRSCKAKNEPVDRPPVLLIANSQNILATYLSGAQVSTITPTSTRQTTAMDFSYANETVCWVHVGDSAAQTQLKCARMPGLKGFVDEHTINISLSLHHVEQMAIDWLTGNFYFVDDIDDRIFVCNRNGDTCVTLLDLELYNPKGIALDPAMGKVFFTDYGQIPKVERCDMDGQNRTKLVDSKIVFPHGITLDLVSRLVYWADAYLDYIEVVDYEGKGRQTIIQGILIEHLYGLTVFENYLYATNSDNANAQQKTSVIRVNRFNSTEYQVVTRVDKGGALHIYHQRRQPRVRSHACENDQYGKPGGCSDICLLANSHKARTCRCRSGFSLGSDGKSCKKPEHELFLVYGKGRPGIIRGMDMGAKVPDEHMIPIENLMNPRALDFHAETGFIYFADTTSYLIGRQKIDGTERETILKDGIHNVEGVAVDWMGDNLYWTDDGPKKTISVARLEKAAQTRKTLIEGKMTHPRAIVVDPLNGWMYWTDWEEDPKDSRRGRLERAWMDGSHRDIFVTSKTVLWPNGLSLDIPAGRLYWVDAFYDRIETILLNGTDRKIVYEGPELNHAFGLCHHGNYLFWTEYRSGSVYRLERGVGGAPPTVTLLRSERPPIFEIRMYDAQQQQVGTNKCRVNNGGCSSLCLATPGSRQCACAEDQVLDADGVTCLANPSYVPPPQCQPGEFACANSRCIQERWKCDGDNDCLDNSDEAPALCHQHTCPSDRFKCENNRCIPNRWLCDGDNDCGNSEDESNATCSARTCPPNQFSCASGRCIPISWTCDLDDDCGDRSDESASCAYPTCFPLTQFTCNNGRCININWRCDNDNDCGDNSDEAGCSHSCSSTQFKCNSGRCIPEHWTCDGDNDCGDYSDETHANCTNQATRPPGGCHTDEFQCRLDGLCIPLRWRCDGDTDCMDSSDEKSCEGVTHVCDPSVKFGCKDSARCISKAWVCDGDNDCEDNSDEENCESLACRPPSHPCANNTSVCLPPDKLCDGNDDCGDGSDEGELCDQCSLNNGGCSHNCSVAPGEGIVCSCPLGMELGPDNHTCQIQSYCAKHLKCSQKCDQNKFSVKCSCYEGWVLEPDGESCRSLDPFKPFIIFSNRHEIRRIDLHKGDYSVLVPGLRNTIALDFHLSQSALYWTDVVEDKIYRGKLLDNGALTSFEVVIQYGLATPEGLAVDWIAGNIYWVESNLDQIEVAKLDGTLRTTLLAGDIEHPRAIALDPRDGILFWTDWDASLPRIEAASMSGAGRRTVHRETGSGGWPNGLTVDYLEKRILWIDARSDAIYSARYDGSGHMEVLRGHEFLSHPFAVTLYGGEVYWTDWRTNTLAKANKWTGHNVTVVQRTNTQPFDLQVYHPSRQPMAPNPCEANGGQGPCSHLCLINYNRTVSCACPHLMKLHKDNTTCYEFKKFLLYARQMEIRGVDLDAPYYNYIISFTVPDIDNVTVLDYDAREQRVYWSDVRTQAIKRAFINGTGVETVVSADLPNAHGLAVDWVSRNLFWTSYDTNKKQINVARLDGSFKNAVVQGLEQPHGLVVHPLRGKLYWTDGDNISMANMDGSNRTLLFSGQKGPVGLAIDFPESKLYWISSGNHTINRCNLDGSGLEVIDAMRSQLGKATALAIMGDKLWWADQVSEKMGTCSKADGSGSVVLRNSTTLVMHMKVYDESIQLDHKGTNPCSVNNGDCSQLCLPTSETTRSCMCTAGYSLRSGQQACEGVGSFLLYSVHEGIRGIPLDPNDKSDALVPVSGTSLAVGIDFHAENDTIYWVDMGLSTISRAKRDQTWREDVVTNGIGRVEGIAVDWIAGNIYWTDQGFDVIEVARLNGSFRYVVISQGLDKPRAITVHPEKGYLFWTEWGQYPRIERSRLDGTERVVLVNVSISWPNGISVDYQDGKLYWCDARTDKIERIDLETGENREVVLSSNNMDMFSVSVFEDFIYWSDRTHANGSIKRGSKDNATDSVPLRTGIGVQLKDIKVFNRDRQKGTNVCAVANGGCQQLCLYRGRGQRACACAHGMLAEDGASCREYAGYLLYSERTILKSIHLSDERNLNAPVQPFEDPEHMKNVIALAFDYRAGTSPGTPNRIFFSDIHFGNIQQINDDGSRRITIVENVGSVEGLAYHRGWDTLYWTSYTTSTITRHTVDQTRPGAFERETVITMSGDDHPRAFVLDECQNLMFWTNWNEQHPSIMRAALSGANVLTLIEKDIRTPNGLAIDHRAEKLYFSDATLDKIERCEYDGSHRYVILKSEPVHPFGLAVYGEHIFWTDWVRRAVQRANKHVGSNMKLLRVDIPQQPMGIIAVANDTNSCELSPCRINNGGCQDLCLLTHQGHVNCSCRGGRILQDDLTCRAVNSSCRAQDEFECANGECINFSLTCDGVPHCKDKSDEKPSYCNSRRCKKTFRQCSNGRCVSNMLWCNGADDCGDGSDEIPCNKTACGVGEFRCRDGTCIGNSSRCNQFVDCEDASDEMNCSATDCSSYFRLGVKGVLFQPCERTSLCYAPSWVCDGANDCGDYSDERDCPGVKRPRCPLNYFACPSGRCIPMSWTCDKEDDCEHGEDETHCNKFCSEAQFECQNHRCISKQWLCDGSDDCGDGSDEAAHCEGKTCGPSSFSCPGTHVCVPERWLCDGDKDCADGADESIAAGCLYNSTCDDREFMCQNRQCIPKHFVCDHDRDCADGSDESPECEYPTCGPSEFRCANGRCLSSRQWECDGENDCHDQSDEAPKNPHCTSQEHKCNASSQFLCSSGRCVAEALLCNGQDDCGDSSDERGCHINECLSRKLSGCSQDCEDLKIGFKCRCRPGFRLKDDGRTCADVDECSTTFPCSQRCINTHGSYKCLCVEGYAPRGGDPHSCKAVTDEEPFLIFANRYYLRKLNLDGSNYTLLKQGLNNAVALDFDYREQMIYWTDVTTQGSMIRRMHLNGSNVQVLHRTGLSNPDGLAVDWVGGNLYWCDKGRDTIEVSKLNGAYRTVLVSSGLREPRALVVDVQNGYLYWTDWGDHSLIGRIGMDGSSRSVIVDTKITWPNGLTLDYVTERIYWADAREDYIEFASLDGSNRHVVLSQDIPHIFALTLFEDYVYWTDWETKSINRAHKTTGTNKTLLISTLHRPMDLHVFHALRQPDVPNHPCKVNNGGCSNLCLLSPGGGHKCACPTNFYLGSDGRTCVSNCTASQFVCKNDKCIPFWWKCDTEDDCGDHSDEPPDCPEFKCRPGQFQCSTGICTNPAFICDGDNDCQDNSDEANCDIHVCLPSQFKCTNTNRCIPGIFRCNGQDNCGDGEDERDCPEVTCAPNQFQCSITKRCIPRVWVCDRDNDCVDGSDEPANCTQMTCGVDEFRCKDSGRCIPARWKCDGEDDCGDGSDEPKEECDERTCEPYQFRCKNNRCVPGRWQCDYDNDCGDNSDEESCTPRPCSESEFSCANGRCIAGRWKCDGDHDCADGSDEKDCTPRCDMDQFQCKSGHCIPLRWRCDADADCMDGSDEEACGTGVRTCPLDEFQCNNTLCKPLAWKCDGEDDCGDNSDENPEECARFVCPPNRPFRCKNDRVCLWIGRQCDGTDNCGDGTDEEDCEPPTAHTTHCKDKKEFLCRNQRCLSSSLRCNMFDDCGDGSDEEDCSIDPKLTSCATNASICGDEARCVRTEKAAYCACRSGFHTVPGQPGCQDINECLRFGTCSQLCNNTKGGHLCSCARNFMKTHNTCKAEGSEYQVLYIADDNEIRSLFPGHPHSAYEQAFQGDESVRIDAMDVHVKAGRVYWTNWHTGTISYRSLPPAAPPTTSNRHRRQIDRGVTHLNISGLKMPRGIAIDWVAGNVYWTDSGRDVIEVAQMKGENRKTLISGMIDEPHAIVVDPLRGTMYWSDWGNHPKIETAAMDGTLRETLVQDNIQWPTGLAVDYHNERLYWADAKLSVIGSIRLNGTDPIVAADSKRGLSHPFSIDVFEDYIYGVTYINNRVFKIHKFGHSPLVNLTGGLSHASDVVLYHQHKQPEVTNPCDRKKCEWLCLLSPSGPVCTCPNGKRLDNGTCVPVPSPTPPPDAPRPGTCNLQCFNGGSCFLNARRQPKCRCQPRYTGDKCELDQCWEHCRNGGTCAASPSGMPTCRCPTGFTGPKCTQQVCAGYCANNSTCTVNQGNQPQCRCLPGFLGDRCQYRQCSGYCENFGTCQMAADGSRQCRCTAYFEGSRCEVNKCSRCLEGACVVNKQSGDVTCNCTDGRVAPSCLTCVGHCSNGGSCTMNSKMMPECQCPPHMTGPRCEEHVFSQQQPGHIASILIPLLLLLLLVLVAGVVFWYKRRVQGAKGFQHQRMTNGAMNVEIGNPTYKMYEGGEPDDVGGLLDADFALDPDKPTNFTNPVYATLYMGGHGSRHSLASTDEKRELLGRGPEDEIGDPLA

CNc1ccc(/C=C/c2ccc(OCCOCCOCCF)nc2)cc1 [fluorine-18 labelled]  Kd (Amyloid-beta precursor protein, amyloid-beta aggregates (APP, Homo sapiens, UniProt P05067); saturation binding, measured: amyloid-beta; human, Alzheimer's disease brain homogenate): 0.00351 µM
c1ccc2nc3ccccc3cc2c1  Kd (HIV-1 nucleocapsid-SL2 RNA complex; binding, ESI-FTMS; pH 7.5): 17.1 ± 0.4 µM
COc1cc2c(cc1-c1c(C)noc1C)[nH]c1nc(C)nc(-c3ccnc4ccccc34)c12  Kd (non-BET bromodomain proteins; binding, BROMOscan; excluding CREBBP, EP300, CECR2): > 4 µM
OC(c1cc(C23CC4CC(CC(C4)C2)C3)nc2c(Cl)cc(Cl)cc12)C1CCCCN1 (stereo not shown)  Kd (Ezrin (EZR, Homo sapiens, UniProt P15311); binding, SPR): 6.6 µM
O=C(O)CC(O)(CC(=O)O)C(=O)O  Kd (SLC4A1 (Homo sapiens, UniProt P02730); chloride exchange flux; human red blood cells; 0 °C, external pH 6.8, outward-facing state): 3800 µM
CNC(=O)CNC(=O)CN1CCc2cc(OC)c(OC)cc2C1Cc1ccc(OC)c(OC)c1 (stereo not shown)  Kd (HCRTR1): 7.64 ± 1.1 µM
CSCC[C@H](NC(=O)[C@H](CC(N)=O)NC(=O)[C@H](CC(N)=O)NC(=O)[C@H](CC(N)=O)NC(=O)[C@H](C)N)C(=O)N[C@@H](Cc1ccc(O)cc1)C(=O)N[C@@H](CCCNC(=N)N)C(=O)N[C@@H](CCCNC(=N)N)C(=O)O  Kd (dnaK (Escherichia coli, UniProt P0A6Y8); peptide binding, surface plasmon resonance; added: ADP): 1.69 µM
COC(=O)[C@@H](N)CCCCN  Kd (LRP1, CR3 domain (Homo sapiens, UniProt Q07954); binding, tryptophan fluorescence titration; isolated CR3 domain; pH 7.4, 298 K, ionic strength 0.17): 370 ± 40 µM
COc1ccc(CC2c3cc(OC)c(OC)cc3CCN2CC(=O)NCC(N)=O)cc1OC (stereo not shown)  Kd (HCRTR1): > 10 µM
phosphatidylinositol 3,4,5-trisphosphate  Kd (Src kinase-associated phosphoprotein 2, DM-PH domains (Skap2, Mus musculus, UniProt Q3UND0, K56A); fluorescence polarization direct titration; pH 6.5, 21 °C, compound labelled with BODIPY TMR-X): 30 µM
COC(=O)CNC(=O)CN1CCc2cc(OC)c(OC)cc2C1Cc1ccc(OC)c(OC)c1 (stereo not shown)  Kd (HCRTR1): 6.63 ± 0.35 µM
COC(=O)[C@@H](N)CCCN=C(N)N  Kd (LRP1, CR8 domain (Homo sapiens, UniProt Q07954); tryptophan fluorescence titration; pH 7.4, 298 K, CR8 domain, ionic strength 0.02): 370 ± 20 µM
CCOc1cc2c(cc1OC)CCN(CC(=O)NCc1cccnc1)C2Cc1ccc(OC)c(OC)c1 (stereo not shown)  Kd (HCRTR1): 0.0157 ± 0.0017 µM
NC[C@@H]1O[C@H](O[C@H]2[C@@H](O)[C@H](O[C@@H]3[C@@H](O)[C@H](N)C[C@H](N)[C@H]3O[C@H]3O[C@H](CN)[C@@H](O)[C@H](O)[C@H]3N)O[C@@H]2CO)[C@H](N)[C@@H](O)[C@@H]1O  Kd (HIV-1 SL4 RNA stem-loop; binding, ESI-FTMS titration; pH 7.5): 1 ± 0.2 µM
CC(C)C[C@H](NC(=O)[C@H](CC(N)=O)NC(=O)[C@H](CCCNC(=N)N)NC(=O)[C@H](C)NC(=O)[C@@H](NC(=O)[C@@H]1CCCN1C(=O)[C@@H]1CCCN1C(=O)[C@@H]1CCCN1)C(C)C)C(=O)N[C@@H](CCCCN)C(=O)N1CCC[C@H]1C(=O)N[C@@H](CC(=O)O)C(=O)N[C@@H](CCCNC(=N)N)C(=O)O  Kd (GRB2 (Homo sapiens, UniProt P62993); binding, ITC; pH 8): 90 µM
COc1ccc(CC2c3cc(OC)c(OC)cc3CCN2CC(=O)NCc2ccc(F)cc2)cc1OC (stereo not shown)  Kd (HCRTR1): 0.279 ± 0.081 µM

A few entries again:
CC(C)C[C@H](NC(=O)[C@H](CC(N)=O)NC(=O)[C@H](CCCNC(=N)N)NC(=O)[C@H](C)NC(=O)[C@@H](NC(=O)[C@@H]1CCCN1C(=O)[C@@H]1CCCN1C(=O)[C@@H]1CCCN1)C(C)C)C(=O)N[C@@H](CCCCN)C(=O)N1CCC[C@H]1C(=O)N[C@@H](CC(=O)O)C(=O)N[C@@H](CCCNC(=N)N)C(=O)O  Kd (GRB2 (Homo sapiens, UniProt P62993); binding, ITC; pH 8): 90 µM
